Published values pooled from the literature.
Protocols differ between the studies behind these lines. “And” joins repeats or separate records; there may be more than shown. Numbers after ± are the reported error.
TDP1: Tyrosyl-DNA phosphodiesterase 1 (TDP1, Homo sapiens, UniProt Q9NUW8)
UniProt Q9NUW8, sequence (whole entry, looked up): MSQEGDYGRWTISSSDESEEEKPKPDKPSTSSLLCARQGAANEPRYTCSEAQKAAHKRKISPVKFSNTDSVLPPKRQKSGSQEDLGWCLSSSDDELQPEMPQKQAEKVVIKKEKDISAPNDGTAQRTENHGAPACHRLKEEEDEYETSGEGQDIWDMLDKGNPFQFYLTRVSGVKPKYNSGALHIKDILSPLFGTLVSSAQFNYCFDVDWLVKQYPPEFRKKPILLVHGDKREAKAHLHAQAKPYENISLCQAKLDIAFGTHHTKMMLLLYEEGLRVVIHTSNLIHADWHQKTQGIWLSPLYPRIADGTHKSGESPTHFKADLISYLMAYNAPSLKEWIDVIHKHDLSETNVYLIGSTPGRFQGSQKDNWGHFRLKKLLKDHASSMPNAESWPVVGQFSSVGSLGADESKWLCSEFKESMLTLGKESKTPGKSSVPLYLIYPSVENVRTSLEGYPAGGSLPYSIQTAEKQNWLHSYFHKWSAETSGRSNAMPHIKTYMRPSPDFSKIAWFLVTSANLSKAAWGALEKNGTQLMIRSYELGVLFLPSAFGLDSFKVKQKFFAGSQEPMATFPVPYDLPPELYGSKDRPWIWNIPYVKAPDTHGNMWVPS

SMILES	target or system	test	system	conditions	scale	endpoint	result
CC1(C)C(=CC=C2CCCC(C=CC3=[N+](CCC[N+](C)(C)C)c4ccc(S(=O)(=O)O)cc4C3(C)C)=C2SCCOCCOCCC(=O)O)N(CCC[N+](C)(C)C)c2ccc(S(=O)(=O)O)cc21			DMSO			emission maximum wavelength	834 nm
C=C[C@]1(C)C[C@@H](OC(=O)CSc2ccc(NC(=O)c3ccco3)cc2)[C@]2(C)[C@H](C)CC[C@]3(CCC(=O)[C@H]32)[C@@H](C)[C@@H]1O			Mycoplasma gallisepticum-infected chickens, plasma	intramuscular, 80 mg/kg, 2 h		plasma concentration	5220 ng/mL and 4330 ng/mL and 4500 ng/mL and 3880 ng/mL and 7080 ng/mL and 4080 ng/mL and 4340 ng/mL and 4760 ng/mL
Cc1cc(NC(=O)[C@H](O)c2cc(F)cc(F)c2)ccc1-c1cnc(N)c(C(=O)NC(C)C)c1			female nude mouse, plasma	oral, 100 mg/kg, single dose		half-life	2.6 h
COc1cccc(OC)c1-c1cc(C(=O)NC2(C(=O)O)C3CC4CC(C3)CC2C4)nn1-c1ccc(C(=O)N(C)CCCN(C)CCCN(C)C(=O)[C@H](CCCCNC(=O)[C@H](CC(C)C)NC(=O)C2OC2C(=O)O)NC(=O)CN2CCN(CC(=O)[O-])CCN(CC(=O)[O-])CCN(CC(=O)[O-])CC2)cc1C(C)C.[177Lu+3] (mixture of isomers)			mouse HT-29 xenograft	4 h, biodistribution	relative to: tumour over pancreas	tumour-to-pancreas ratio	23.8
CN1CCC[C@]1(C)/C=C/S(=O)(=O)NC(=O)Nc1c2c(cc3c1CCC3)CCC2		refers to: alanine aminotransferase increased, probably related	human	oral, 50 mg twice daily, 14 days, multiple ascending dose		subjects with adverse event	0%
CC(C)C[C@H](NC(=O)[C@H](CCCN)NC(=O)CNC(=O)[C@@H](NC(=O)[C@H](C)NC(=O)[C@@H]1CSCSC[C@H](NC(=O)CC[C@H](N)C(=O)O)C(=O)N[C@@H](CC(N)=O)C(=O)N[C@@H]([C@@H](C)O)C(=O)N[C@@H](C)C(=O)N[C@@H]([C@@H](C)O)C(=O)N1)[C@@H](C)O)C(=O)N[C@@H](C)C(=O)N[C@@H](CCC(=O)O)C(=O)N[C@@](C)(Cc1ccccc1)C(=O)N[C@@H](CC(C)C)C(=O)N[C@H](C(=O)N[C@@H](CCCNC(=N)N)C(=O)N[C@@H](CO)C(=O)N[C@@H](CO)C(=O)N[C@@H](CC(N)=O)C(=O)N(C)[C@@H](CC(N)=O)C(=O)N[C@@H](Cc1ccccc1)C(=O)NCC(=O)N1CCC[C@H]1C(=O)N[C@@H](CCCCNC(=O)CC[C@H](NC(=O)CC[C@H](NC(=O)CCCCCCCCCCCCCCCCCCC(=O)O)C(=O)O)C(=O)O)C(=O)N[C@@H](CC(C)C)C(=O)N1CCC[C@H]1C(=O)N1CCC[C@H]1C(=O)N[C@H](C(=O)N[C@@H](CCC(=O)O)C(=O)N[C@H](C(=O)NCC(=O)N[C@@H](CO)C(=O)N[C@@H](CC(N)=O)C(=O)N[C@H](C(=O)N[C@@H](Cc1ccc(O)cc1)C(N)=O)[C@@H](C)O)C(C)C)[C@@H](C)O)C(C)C			human, plasma	subcutaneous, 0.04 mg, single dose, healthy volunteers		Tmax	132 h
[Mn+2].[O-][Cl+3]([O-])([O-])[O-].[O-][Cl+3]([O-])([O-])[O-].c1ccc(CN2Cc3cccc(n3)CN(Cc3ccccn3)Cc3cccc(n3)C2)nc1		voltammetry, Nernst equation		Mn(III) complex		stability constant log β	6.31
O=C(Nc1cnccc1-c1ccc([18F])cc1)c1ccnc(NC(=O)C2CC2)c1			FVB/NJ mouse, both sexes, brain	intravenous, 25 min, together with: tariquidar 15 mg/kg iv		SUV	0.41
Cc1ccc(CN2C(=O)/C(=N\c3ccc(Cl)cc3Br)c3ccccc32)cc1			mouse, blood	100 mg/kg		MCH	14.4 ± 0.4 pg
CC(=NOCc1ccc2nc(-c3ccccc3)c(Nc3ccc(C(=O)O)cc3)n2c1)c1ccc(O)cc1 (mixture of isomers)	TDP1	enzyme activity, inhibitor		100 µM, unpurified compound		inhibition	29.1%
Cc1noc(C)c1Cn1cc(N2C(=O)CN(Cc3cccc(OS(=O)(=O)O)c3)C2=O)cn1			rat Sprague-Dawley male, plasma	intravenous, 1 mg/kg of parent drug, 8 h		plasma concentration	108 ng/mL
O=c1cc(/C=C/c2ccc(N3CCCC3)cc2)oc(/C=C/c2ccc(N3CCCC3)cc2)c1			nanoparticles in acetonitrile/water 1:19 v/v			radiative rate constant	1.1e+08 s⁻¹
CCCCN1C(=O)c2cccc3c(NCCN4CCOCC4)ccc(c23)C1=O			DMSO			emission maximum	533 nm
CN([O-])C(=O)CN1CCNCCN(CC(=O)N(C)[O-])CC1.[89Zr+4]			mouse, bone	intravenous, 1 h		tracer uptake	0.76 %ID/g
COc1cccc(OC)c1-c1cc(C(=O)NC2(C(=O)O)C3CC4CC(C3)CC2C4)nn1-c1ccc(C(=O)N(C)CCOCCOCCN(C)C(=O)[C@H](CCCCNC(=O)[C@H](CC(C)C)NC(=O)C2OC2C(=O)O)NC(=O)CN2CCN(CC(=O)[O-])CCN(CC(=O)[O-])CCN(CC(=O)[O-])CC2)cc1C(C)C.[177Lu+3] (mixture of isomers)			mouse HT-29 xenograft	168 h, biodistribution	relative to: tumour over pancreas	tumour-to-pancreas ratio	5.65
C/C(N)=N/C(=N\S(=O)(=O)c1ccc(C(F)(F)F)cc1)N1C[C@H](c2ccccc2)C(c2ccc(Cl)cc2)=N1			cynomolgus monkey, female, plasma	intravenous, 2 mg/kg		AUC(0-inf)	18400 ng·h/mL
Cc1nc(N)nc2c1C(=O)N[C@@H](c1ccc(F)cc1-c1cccc(O[11CH3])n1)C2		ex vivo biodistribution	mice, MDA-MB-231 subcutaneous xenograft, lungs	60 min post-injection, baseline, vehicle pre-treatment		SUV	2.4 ± 0.3
CN[C@H](CC(C)C)C(=O)N[C@H]1C(=O)N[C@@H](CC(N)=O)C(=O)N[C@H]2CN[C@H]3C(=O)N[C@H](C(=O)N[C@H](C(=O)NCCCNC(=N)N)c4cc(O)cc(O)c4-c4cc3ccc4O)[C@H](O)c3ccc(c(Cl)c3)Oc3cc2cc(c3O[C@@H]2O[C@H](CO)[C@@H](O)[C@H](O)[C@H]2O[C@H]2C[C@](C)(NCc3ccc(-c4ccc(Cl)cc4)cc3)[C@H](O)[C@H](C)O2)Oc2ccc(cc2Cl)[C@H]1O			mouse	intravenous, 10 mg/kg		volume of distribution	0.14 L/kg
Cc1[nH]nc2c1N=C(c1ccccc1Cl)c1cnc(N3CCOCC3)cc1N2			nude mouse, HCC1806 xenograft, plasma	oral, 10 mg/kg once daily		Cmax	149 ng/mL
C=CC(=O)Nc1cc(Nc2nccc(-c3cn(C)c4ccccc34)n2)c(OC)cc1N(C)CCNC		storage stability	human plasma	30 d, on ice, LQC level		recovery	56.7%
NC(=O)[C@H](CCC(=O)O)NC(=O)[C@H](CCC(=O)O)NC(=O)[C@H](Cc1ccc(O)cc1)NC(=O)[C@H](Cc1ccccc1)NC(=O)[C@H](Cc1ccccc1)NC(=O)OCC1c2ccccc2-c2ccccc21		CD spectroscopy	peptide nanofibres			β-sheet content	33.8%
Cc1cc(-c2ccc(C(=O)[C@@H]3CCCC[C@H]3C(=O)Nc3cnn4c3C(=O)NCC4)cc2)[nH]n1			human, urine	oral, 200 mg, 0-6 h	relative to: dose	recovery of radioactivity per interval	2.08%

SMILES	target or system	test	system	conditions	scale	endpoint	result
CCCCN1C(=O)c2cccc3c(NCCCCCCCCCCN4CCOCC4)ccc(c23)C1=O			DMSO			emission maximum	535 nm
CN(O)C(=O)CCC(=O)NCCCN(CCCCN(CCCNC(=O)CCC(=O)N(C)O)C(=O)CCC(=O)N(C)O)C(=O)CCC(=O)N(C)O.[89Zr]			human plasma	5 d, 37 °C		intact complex	100%
O=C(c1cccc(N2Cc3cn(Cc4ccc(F)cc4)nc3C2)c1)N1CCCCC1		metabolic stability	rat, liver microsomes			half-life	0.217 h
CC(C(=O)O)n1nc(Cn2cc3cc(OCC[18F])c(Cl)cc3n2)c2ccccc2c1=O (racemic)			rat, heart	1 h		tracer uptake	0.11 %ID/g
COc1cccc(OC)c1-c1cc(C(=O)NC2(C(=O)O)C3CC4CC(C3)CC2C4)nn1-c1ccc(C(=O)N(C)CCCN(C)C(=O)[C@H](CCCCNC(=O)[C@H](CC(C)C)NC(=O)C2OC2C(=O)O)NC(=O)CN2CCN(CC(=O)[O-])CCN(CC(=O)[O-])CCN(CC(=O)[O-])CC2)cc1C(C)C.[177Lu+3] (mixture of isomers)			mouse HT-29 xenograft	168 h, biodistribution	relative to: tumour over pancreas	tumour-to-pancreas ratio	20.6
CS(=O)(=O)c1cc(Cl)cc(-c2cc(Cl)c(Cl)cc2Cl)c1Cl			whole cow milk	100 nM nominal		dose fraction in skim milk	7.16%
[123I]c1ccc2nc(-c3ccc(-n4ccnn4)nc3)cn2c1			male Wistar rat, spleen	intravenous, 4 MBq, 30 min		tracer uptake	0.291 %ID/g
Cn1ncc(Cl)c1C=NOCc1ccc2nc(-c3ccccc3)c(Nc3ccc(C(=O)O)cc3)n2c1	TDP1	enzyme activity, inhibitor		100 µM, unpurified compound		inhibition	17.2%
CCCCN1C(=O)c2cccc3c(NCCCCCCCCN4CCOCC4)ccc(c23)C1=O			dichloromethane			emission maximum	517 nm
OC1(C(F)(F)F)CCN(c2nc(Nc3ccnc(C(F)(F)F)c3)nc(-c3cccc(C(F)(F)F)n3)n2)C1 (stereo not shown)			monkey, both sexes, plasma	oral, 1 mg/kg, day 1		AUC(0-inf)	7620 ± 1640 ng·h/mL
CCCC[N+]1=c2cc3c4cc2[O][Mn-2]1(=[C]=O)(=[C]=O)(=[C]=O)[n+]1ccc(cc1)C(=O)Nc1ccccc1NC(=O)c1cc[n+](cc1)[Mn-2](=[C]=O)(=[C]=O)(=[C]=O)([O]3)[N+]=4CCCC			PBS with reduced myoglobin	pH 7.4, dark		stability time without CO release	≥ 12 h
CC(C)(O)c1ncc([S@](N)(=O)=NC(=O)Nc2c3c(cc4c2CCC4)CCC3)s1		refers to: metabolism, nutrition disorders	healthy human	oral, 100 mg, CT formulation, fed		subjects with TEAEs	17%
CCCCN1C(=O)c2cccc3c(NCCCCN4CCOCC4)ccc(c23)C1=O			toluene			emission maximum	498 nm
COCC1CN(C2CCN(c3cc(OC)c(Nc4ncc(Br)c(Nc5ccc6c(c5P(C)(C)=O)OCCO6)n4)cc3C)CC2)C1			EGFR-mutant NSCLC patients	oral, 30 mg once daily		patients with adverse events	100%
CN(C)C(=O)c1cccc(N2Cc3cn(CC4CCCCC4)nc3C2)c1		metabolic stability	rat, liver microsomes			half-life	0.0233 h
CCCCN1C(=O)c2cccc3c(NCCCCCN4CCOCC4)ccc(c23)C1=O			DMF			fluorescence quantum yield	0.66
O=C(Nc1cnccc1-c1ccc([18F])nc1)c1ccnc(NC(=O)C2CC2)c1		ex vivo gamma counting	GSK-3β transgenic mice, early-stage, brain stem	intravenous, 120 min, together with: tariquidar 15 mg/kg iv		mean SUV	0.063
CC(C)C[C@H](NC(=O)[C@@H](CCCCNC(=O)[C@@H](Cc1ccccc1)NC(=O)CCCCCCCNC(=O)CN1CCN(CC(=O)O)CCN(CC(=O)O)CCN(CC(=O)O)CC1)NC(=O)[C@H](Cc1ccc(O)cc1)NC(=O)[C@H](CO)NC(=O)[C@H](Cc1c[nH]c2ccccc12)NC(=O)[C@H](Cc1c[nH]cn1)NC(=O)[C@@H]1CCC(=O)N1)C(=O)N[C@@H](CCCNC(=N)N)C(=O)N1CCC[C@H]1C(=O)NCC(N)=O [indium-111 labelled]			male athymic nude mice, DU-145 prostate cancer xenograft, urine	intravenous, 0.037 MBq, 4 h		excreted dose	90.5 ± 2.53%
C=C(NC(=O)c1csc(-c2nc3c(cc2O)-c2nc(cs2)C(=O)NC(C(C)O)C(=O)NC(=C(C)OC)c2nc(cs2)C(=O)NC2c4nc(cs4)C(=O)NC(COC(=O)c4c5c6c(cccc6n4O)COC(=O)C(OC4CC(C)(O)C(N(C)C)C(C)O4)C2OC5)c2nc-3cs2)n1)C(N)=O (stereo not shown)			Sprague-Dawley rat, female, plasma	intravenous infusion, 18 mg/kg single dose		AUC(0-last)	5810 ng·h/mL
COc1cccc(OC)c1-c1cc(C(=O)NC2(C(=O)O)C3CC4CC(C3)CC2C4)nn1-c1ccc(C(=O)NCCNC(=O)[C@H](CCCCNC(=O)[C@H](CC(C)C)NC(=O)C2OC2C(=O)O)NC(=O)CN2CCN(CC(=O)[O-])CCN(CC(=O)[O-])CCN(CC(=O)[O-])CC2)cc1C(C)C.[177Lu+3] (mixture of isomers)			mouse HT-29 xenograft	24 h, biodistribution	relative to: tumour over spleen	tumour-to-spleen ratio	8.81
CCCC[C@H](NC(=O)CNC(=O)CNC(=O)[C@H](CCCCNC(=O)[C@H](CC(=O)O)NC(=O)C(C)c1ccc(CC(C)C)cc1)NC(=O)CN1CCN(CC(=O)O)CCN(CC(=O)O)CCN(CC(=O)O)CC1)C(=O)N[C@H]1CC(=O)NCCCC[C@@H](C(N)=O)NC(=O)[C@H](Cc2c[nH]c3ccccc23)NC(=O)[C@H](CCCNC(=N)N)NC(=O)[C@@H](Cc2ccccc2)NC(=O)[C@H](Cc2c[nH]cn2)NC1=O (stereo partly shown) [lutetium-177 labelled]			C57 mouse, urine	intravenous, 0.037 MBq, 24 h		excretion	88.1 ± 2.92%

A few entries again:
SMILES	target or system	test	system	conditions	scale	endpoint	result
Cn1ncc(Cl)c1C=NOCc1ccc2nc(-c3ccccc3)c(Nc3ccc(C(=O)O)cc3)n2c1	TDP1	enzyme activity, inhibitor		100 µM, unpurified compound		inhibition	17.2%
COc1cccc(OC)c1-c1cc(C(=O)NC2(C(=O)O)C3CC4CC(C3)CC2C4)nn1-c1ccc(C(=O)N(C)CCCN(C)C(=O)[C@H](CCCCNC(=O)[C@H](CC(C)C)NC(=O)C2OC2C(=O)O)NC(=O)CN2CCN(CC(=O)[O-])CCN(CC(=O)[O-])CCN(CC(=O)[O-])CC2)cc1C(C)C.[177Lu+3] (mixture of isomers)			mouse HT-29 xenograft	168 h, biodistribution	relative to: tumour over pancreas	tumour-to-pancreas ratio	20.6
CCCCN1C(=O)c2cccc3c(NCCCCCN4CCOCC4)ccc(c23)C1=O			DMF			fluorescence quantum yield	0.66
[123I]c1ccc2nc(-c3ccc(-n4ccnn4)nc3)cn2c1			male Wistar rat, spleen	intravenous, 4 MBq, 30 min		tracer uptake	0.291 %ID/g
Cc1ccc(CN2C(=O)/C(=N\c3ccc(Cl)cc3Br)c3ccccc32)cc1			mouse, blood	100 mg/kg		MCH	14.4 ± 0.4 pg
